Measured values pooled from the literature.
Protocols differ between the studies behind these lines. Numbers after ± are the reported error.

| SMILES | tested on | test | test system | conditions | how to read | endpoint | value |
| --- | --- | --- | --- | --- | --- | --- | --- |
| O=C(CSc1nc2c(c(=O)[nH]1)CCCC2)NNC(=O)c1ccc([N+](=O)[O-])cc1 | SARS-CoV-2 | viral replication, plaque reduction | – | 125 µM | – | inhibition | 43.3 ± 3.35% |
| CNC(=O)[C@@H](NC(=O)[C@H](CC(C)C)[C@H](O)C(=O)NO)C(C)(C)C | C2C12 | – | – | 1 µM, added: GA venom | baseline: venom alone | viability difference | 4.99% |
| CC(C)(O)c1ccc2c(c1)C(=CCCN1CCC(O)(c3ccc(Cl)cc3)C(C)(C)C1)c1cccnc1CO2 (stereo not drawn) | SARS-CoV-2 | viral replication | Vero C1008, USA-WA1/2020 | concentration not given, 24 h | – | inhibition | 50 to 60% |
| O=C(CSc1nc2ccccc2c(=O)[nH]1)NNC(=O)c1ccccc1Br | SARS-CoV-2 | viral replication, plaque reduction | – | 125 µM | – | inhibition | 50 ± 3.3% |
| CCNC/C=C\CNCCCCNCCCCNC/C=C\CNCC | SARS-CoV-2 | viral replication | Vero C1008, USA-WA1/2020 | 2.5 µM, reconfirmation | – | inhibition | 81.8% |
| O=C(/C=C/c1ccc(O)c(O)c1/C=C/c1ccc(O)c(O)c1)O[C@H](Cc1ccc(O)c(O)c1)C(=O)O | SARS-CoV-2 | cytopathic effect | Vero E6 | 1.562 µM, first run | – | inhibition | 0% |
| CC[C@H](C)[C@H](NC(=O)[C@H](CC(C)C)NC(=O)[C@H](Cc1c[nH]c2ccccc12)NC(=O)[C@H](CCC(N)=O)NC(=O)[C@@H](NC(=O)[C@H](Cc1ccccc1)NC(=O)[C@H](C)NC(=O)[C@H](CCCCNC(=O)COCCOCCNC(=O)COCCOCCNC(=O)CC[C@H](NC(=O)CCCCCCCCCCCCCCCCCCC(=O)O)C(=O)O)NC(=O)[C@H](CCC(N)=O)NC(=O)[C@H](C)NC(=O)[C@@H](NC(=O)[C@H](CCCCN)NC(=O)[C@H](CC(=O)O)NC(=O)[C@H](CC(C)C)NC(=O)C(C)(C)NC(=O)[C@@H](NC(=O)[C@H](CO)NC(=O)[C@H](Cc1ccc(O)cc1)NC(=O)[C@H](CC(=O)O)NC(=O)[C@H](CO)NC(=O)[C@@H](NC(=O)[C@H](Cc1ccccc1)NC(=O)[C@@H](NC(=O)CNC(=O)[C@H](CCC(=O)O)NC(=O)C(C)(C)NC(=O)[C@@H](N)Cc1ccc(O)cc1)[C@@H](C)O)[C@@H](C)O)[C@@H](C)CC)[C@@H](C)CC)C(C)C)C(=O)N[C@@H](C)C(=O)NCC(=O)NCC(=O)N1CCC[C@H]1C(=O)N[C@@H](CO)C(=O)N[C@@H](CO)C(=O)NCC(=O)N[C@@H](C)C(=O)N1CCC[C@H]1C(=O)N1CCC[C@H]1C(=O)N1CCC[C@H]1C(=O)N[C@@H](CO)C(N)=O | – | measured: anti-drug antibodies | healthy human subjects | 5/5/8/10 mg escalating, baseline, evaluable subjects | – | subjects ADA-positive at baseline | 0% |
| O=C(CSc1nc2c(c(=O)[nH]1)CCCC2)NNC(=O)c1ccc(Cl)cc1 | SARS-CoV-2 | viral replication, plaque reduction | – | 31.25 µM | – | inhibition | 31.6 ± 4.27% |
| CC(=O)Nc1ncc([N+](=O)[O-])s1 | SARS-CoV-2 | viral replication | Vero E6, USA-WA1/2020 | 2.5 µM | – | inhibition | 41.8% |
| COc1ccccc1-c1cccc(CN2CCCC(C(=O)NCCc3ccc(F)cc3)C2)c1 (stereo not drawn) | SARS-CoV-2 | cytopathic effect, cell-based CPE | USA_WA1/2020 | round 1, 5-point dilution | – | AC50 | 12.6 µM |
| CC(C)(C)[C@H](NC(=O)C(F)(F)F)C(=O)N1C[C@H]2[C@@H]([C@H]1C(=O)N[C@H](C#N)C[C@@H]1CCNC1=O)C2(C)C | SARS-CoV-2 | viral replication, infectious virus | Vero E6 | 0.00015 µM | – | inhibition | 3.98% |
| Cc1ccc2nc(Cl)c3cc(C(=O)NCCCN4CCC(C)CC4)sc3c2c1 | SARS-CoV-2 | cytopathic effect | USA_WA1/2020 | retest, 8-point, duplicates | – | efficacy | 91.1% |
| Nc1ncnc2c([C@@H]3N[C@H](CO)[C@@H](O)[C@H]3O)c[nH]c12 | Marburg virus | surface glycoprotein expression | HeLa, Musoke | 50 µM, 1 h | – | inhibition | 91.1% |
| COc1ccc(C[C@@H]2c3cc(Oc4cc(C[C@@H]5c6cc(O)c(OC)cc6CCN5C)ccc4O)c(OC)cc3CCN2C)cc1 | SARS-CoV-2 | cytopathic effect | Vero C1008 (E6) | 100 µM | – | inhibition | 90% |
| Cn1cnc(Cn2c(=O)[nH]/c(=N\c3cc4cn(C)nc4cc3Cl)n(Cc3cc(F)c(F)cc3F)c2=O)n1 | – | – | human, all renal function groups | oral, 375 mg, vessel puncture site haemorrhage TEAE, Mild severity | – | patients with adverse event | 6.3% |
| CCN(CC)CCCNc1ccnc2cc(Cl)ccc12 | SARS-CoV-2 | viral replication | Vero E6, USA-WA1/2020 | 2.5 µM | – | inhibition | 53.3% |
| CC(C)=CCc1c(O)ccc(C(=O)/C=C/c2ccc(O)cc2)c1O | SARS-CoV-2 | viral cytopathic effect | Vero E6 | 100 µM | – | inhibition | 90% |
| Cn1cnc(Cn2c(=O)[nH]/c(=N\c3cc4cn(C)nc4cc3Cl)n(Cc3cc(F)c(F)cc3F)c2=O)n1 | SARS-CoV-2 | viral replication | Vero C1008, XBB.1 | 0.01715 µM | – | inhibition | 0% |

Repeated from above:
| SMILES | tested on | test | test system | conditions | how to read | endpoint | value |
| --- | --- | --- | --- | --- | --- | --- | --- |
| COc1ccccc1-c1cccc(CN2CCCC(C(=O)NCCc3ccc(F)cc3)C2)c1 (stereo not drawn) | SARS-CoV-2 | cytopathic effect, cell-based CPE | USA_WA1/2020 | round 1, 5-point dilution | – | AC50 | 12.6 µM |
| CC(C)=CCc1c(O)ccc(C(=O)/C=C/c2ccc(O)cc2)c1O | SARS-CoV-2 | viral cytopathic effect | Vero E6 | 100 µM | – | inhibition | 90% |
